Results collected from several papers.
Compare with care: the assays were run in different laboratories. ± marks the error that the study gave.
Cell line: A549

S=c1n(-c2ccccc2)c2c3ccccc3nc3[n+]2[n]1[Ir-3]12([S]3)([c]3ccccc3-c3cccc[n+]31)[c]1ccccc1-c1cccc[n+]12 — cellular iridium uptake (ICP-MS; 10 µM, 24 h, 37 °C): 1.58 ± 0.09 fmol/cell
COc1cc2c(cc1OC)-c1c(oc3c4c(cc(O)c3c1=O)OC(C)(C)C=C4)CO2 — viability (cell growth or viability, MTT; 100 µg/mL): 70.2%
NC[C@H]1O[C@H](O[C@H]2[C@H](O)[C@@H](O[C@H]3O[C@H](Cn4cc(CNC(=S)Nc5ccc6c(c5)C(=O)OC65c6ccc(O)cc6Oc6cc(O)ccc65)nn4)[C@@H](O)[C@H](N)[C@H]3O)[C@H](N)C[C@@H]2N)[C@H](O)[C@@H](O)[C@@H]1O — cytotoxicity (5 µM, 24 h): 2 ± 0.7%
O=C(C=Cc1ccccc1)OC1C=CC(O)C(O)(COC(=O)c2ccccc2)C1O (single isomer, unassigned; (-)) — viability (cell growth or viability, MTT; 100 µg/mL): 80.2%
O=c1c(O)c(-c2ccc(N(c3ccccc3)c3ccccc3)cc2)oc2cc3ccccc3cc12 — cytotoxicity (concentration not given, 24 h, visible light illumination): not toxic
COc1cc(Oc2c(O)c(Br)c(C)c(Br)c2OC)c(C(=O)O)c(C)c1O — viability (MTT; 10 or 50 µM, 48 h): 96.6 ± 14.8%
CCNc1cc2c(cc1C)C1(c3cc(C)c(NCC)cc3O2)c2ccccc2C(=O)N1N=Cc1c[c-]c(-c2ccccn2)cc1.Cc1c(C)c(-c2ccc(-c3ccccc3)cc2)[c-](C)c1C.[Cl-].[Ir+3] — viable cells (annexin V/PI flow cytometry; 2.0×IC50, 24 h): 4.96 ± 0.13%
S=c1n(-c2ccccc2)c2c3ccccc3nc3[n+]2[n]1[Ir-3]12([S]3)([c]3ccccc3-c3sc4ccccc4[n+]31)[c]1ccccc1-c1sc3ccccc3[n+]12 — cellular iridium uptake (ICP-MS; 10 µM, 24 h, 37 °C): 2.15 ± 0.16 fmol/cell
COc1cc(Oc2c(O)cc(C)cc2OC)c(C(=O)O)c(C)c1O — viability (MTT; 10 or 50 µM, 48 h): 106 ± 4.3%
COc1cc(OC)c(-c2coc3c4c(cc(O)c3c2=O)OC(C)(C)C=C4)cc1OC — viability (cell growth or viability, MTT; 100 µg/mL): 84.6%
COc1cc(Oc2c(O)c(Cl)c(C)c(Cl)c2OC)c(C(=O)O)c(C)c1O — viability (MTT; 10 or 50 µM, 48 h): 99.4 ± 8.6%
COc1cc2c(cc1OC)[C@@H]1C(=O)c3c(O)cc4c(c3O[C@@H]1CO2)C=CC(C)(C)O4 — viability (cell growth or viability, MTT; 100 µg/mL): 68.6%
COC1C=CC(OC(=O)C=Cc2ccccc2)C(O)C1(O)COC(=O)c1ccccc1 (single isomer, unassigned; (-)) — viability (cell growth or viability, MTT; 100 µg/mL): 83.3%

For quick reference, copied from above:
O=c1c(O)c(-c2ccc(N(c3ccccc3)c3ccccc3)cc2)oc2cc3ccccc3cc12 — cytotoxicity (concentration not given, 24 h, visible light illumination): not toxic
